# Results collected from several papers.
# Lines come from different studies, so protocols differ. Numbers after ± are the reported error.
Compound,test,system,conditions,scale,Cmax
CCCCCCCCCCCCCCC[C@H](O)[C@@H](N)CO,,"human, phase I, plasma","intravenous, 480 mg/m^2, day 1, monotherapy",,15.2 µM
C/C(=C\c1csc(C)n1)[C@@H]1C[C@@H]2O[C@]2(C)CCC[C@H](C)[C@H](O)[C@@H](C)C(=O)C(C)(C)[C@@H](O)CC(=O)N1,LC-MS/MS,"human patients, plasma","intravenous infusion, 70 mg, 3 h infusion",,0.301 µg/mL
N#CCNC(=O)c1ccc(-c2ccnc(Nc3ccc(N4CCOCC4=O)cc3)n2)cc1,,"human, plasma","oral, 200 mg momelotinib once daily, cycle 1 day 15, mean, added: trametinib 1.0 mg once daily",,0.645 µg/mL
Cc1ccc(NC(=O)c2ccc(CN3CCN(C)CC3)cc2)cc1Nc1nccc(-c2cncc(-c3oncc3C)c2)n1,,"older healthy human adults, plasma","oral, 325 mg single dose, fed, mean",,7.31 µg/mL
CN1CC[C@H](c2c(O)cc(O)c3c(=O)cc(-c4ccccc4Cl)oc23)[C@H](O)C1,HPLC-MS/MS,"human, plasma","intravenous, 40 mg/m^2, cycle 1, mean, added: irinotecan 180 mg/m^2",,1.65 µM
Cc1ccc(NC(=O)c2ccc(CN3CCNCC3)cc2)cc1Nc1nccc(-c2cccnc2)n1,,"human patients, plasma","oral, 400 mg of imatinib, first dose, day 1 of cycle 1",,0.294 µg/mL
CCc1cc2c(cc1N1CCC(N3CCOCC3)CC1)C(C)(C)c1[nH]c3cc(C#N)ccc3c1C2=O,"LC-MS, noncompartmental","human patients under sample A years, plasma","oral, 300 mg/day, cycle 1 day 1, geometric mean",,0.197 µg/mL
CC[C@@]1(O)C(=O)OCc2c1cc1n(c2=O)Cc2cc3c(CN(C)C)c(O)ccc3nc2-1,,"human patients, plasma","oral, 4 mg, day 15, geometric mean, added: pazopanib 800 mg",,0.0165 µg/mL
CS(=O)(=O)n1cc2c(n1)CN([C@@H]1C[C@H](N)[C@@H](c3cc(F)ccc3F)O[C@@H]1C(F)(F)F)C2,,human,"oral, 25 mg every two weeks, steady state",,0.822 µg/mL
O=C(O)CCCCCCCNC(=O)c1ccccc1O,,"human moderate renal impairment, plasma","oral, dose not given, after tenth daily dose, geometric mean",,0.735 µM
CCOc1c([C@H](C)n2nc(C)c3c(N)ncnc32)cc(Cl)c(F)c1[C@@H]1CNC(=O)C1,,"healthy fasted humans, plasma","oral, 20 mg",,1.65 ± 0.272 µM
CNCc1ccc(-c2[nH]c3cc(F)cc4c3c2CCNC4=O)cc1,,"human patients, plasma","oral, 500 mg once daily, day 1, single dose, arithmetic mean",,0.949 µg/mL
C[C@@H]1CN(Cc2ncccn2)C[C@H]1c1nc2c(cnn2C2CCOCC2)c(=O)[nH]1,,human,"oral, 25 mg twice daily, day 7",,0.284 µg/mL
Cc1cnc(N2CC3(CCOCC3)C2)c(C(=O)Nc2ccc(C(=O)N3CCc4cc(C(=O)Nc5c(C)cccc5F)sc4-c4ccccc43)cc2)c1,,"human, plasma","inhaled nebulised, 5 mg twice daily repeated, geometric mean",,0.00149 µg/mL
CCOc1ccc(Cc2cc([C@@H]3O[C@H](SC)[C@@H](O)[C@H](O)[C@H]3O)ccc2Cl)cc1,,"human, plasma","oral, 300 mg, range of daily means",,0.23 to 0.307 µg/mL
COc1cccc(-c2ccc(NC(=O)C3=C(C(=O)O)CCC3)c(F)c2)c1,,"healthy male humans, plasma","oral, 30 mg once daily, day 13, geometric mean",,6.54 µg/mL
COc1cc2nccc(Oc3ccc(NC(=O)NC4CC4)c(Cl)c3)c2cc1C(N)=O,,"human, plasma","oral, 5 mg, geometric mean, added: ketoconazole 400 mg/day",,0.0512 µg/mL
Cc1nc(-c2ccc(OCC(C)C)c(C#N)c2)sc1C(=O)O,,"human, plasma","oral, 80 mg, added: verinurad 5 mg",,1.08 µg/mL
NS(=O)(=O)OC[C@@H]1C[C@@H](n2ccc3c(N[C@H]4CCc5ccccc54)ncnc32)C[C@@H]1O,,human,"intravenous, 8 mg/m^2 single dose, day 1",,0.0591 µg/mL
O=C(O)[C@H](c1ccccc1Cl)N1CCc2sccc2C1,,"human patients, CYP3A4 wt/wt, plasma","oral, 75 mg clopidogrel daily, day 7, median",,1.95 µg/mL
Cn1c(Cn2ccc(C(F)(F)F)c(Oc3cc(Cl)cc(C#N)c3)c2=O)n[nH]c1=O,,"human, plasma","oral, 100 mg once daily, geometric mean, added: islatravir 2.25 mg once daily",,2.71 µM
NC(=O)N1CCC(CC(=O)N2CCC([C@H]3c4ncc(Br)cc4CCc4cc(Cl)cc(Br)c43)CC2)CC1,,"human, plasma","oral, 100 mg twice daily, cycle 2 day 15, added: gemcitabine 1000 mg/m2",,0.645 µg/mL
CCCS(=O)(=O)N[C@H]1C[C@@H](N(C)c2ncnc3[nH]ccc23)C1,,"human, normal hepatic function","oral, 200 mg, single dose, adjusted geometric mean",,1.35 µg/mL
CO[C@H]1C[C@@H]2CC[C@@H](C)[C@@](O)(O2)C(=O)C(=O)N2CCCC[C@H]2C(=O)O[C@H]([C@H](C)C[C@@H]2CC[C@@H](O)[C@H](OC)C2)CC(=O)[C@H](C)/C=C(\C)[C@@H](O)[C@@H](OC)C(=O)[C@H](C)C[C@H](C)/C=C/C=C/C=C/1C,,"human, whole blood","oral, 25 mg, added: grapefruit juice",,0.174 µg/mL
CN(Cc1nc2c(N)nc(N)nc2[nH]c1=O)c1ccc(C(=O)N[C@@H](CCC(=O)O)C(=O)O)cc1,,"human, plasma","oral, 15 mg methotrexate, day 1, alone, arithmetic mean",,0.0647 µg/mL
CCCCC1(CCCC)CN(c2ccccc2)c2cc(SC)c(OCC(=O)N[C@@H](C(=O)NCC(=O)O)c3ccccc3)cc2S(=O)(=O)C1,LC-MS/MS,"human, plasma","oral, 10 mg, single dose, before breakfast",,0.000344 µg/mL
CNCc1ccc(-c2[nH]c3cc(F)cc4c3c2CCNC4=O)cc1,,"human cancer patients, plasma","intravenous, 18 mg/m2, day 4, added: temozolomide 200",,0.863 µg/mL
CCn1c(=O)c2c(nc(/C=C/c3ccc(OC)c(OC)c3)n2C)n(CC)c1=O,,"healthy human, plasma","oral, 40 mg single dose, geometric mean, added: rifampin 600 mg/day steady state",,0.0948 µg/mL
C#C[C@]1(CO)O[C@@H](n2cnc3c(N)nc(F)nc32)C[C@@H]1O,,"human, plasma","oral, 10 mg once weekly, week 1",,0.193 µM
Cc1cc(-c2nnc(N)nc2-c2ccc(F)cc2)cc(Cl)n1,,"human patients, plasma","oral, 75 mg capsule, single dose, arithmetic mean",,0.429 µg/mL
CCc1nc(C(N)=O)c(Nc2ccc(N3CCC(N4CCN(C)CC4)CC3)c(OC)c2)nc1NC1CCOCC1,,"human, mild hepatic impairment, plasma","oral, 10 mg, single dose, fasted, geometric LS mean",,0.00814 µg/mL
O=C(/C=C/c1cccc(S(=O)(=O)Nc2ccccc2)c1)NO,,"human, normal liver function, plasma","intravenous, 400 mg/m^2, 30 min infusion, single dose, mean",,21.9 µg/mL
C=CCNC1=C2C[C@@H](C)C[C@H](OC)[C@H](O)[C@@H](C)/C=C(\C)[C@H](OC(N)=O)[C@@H](OC)/C=C\C=C(/C)C(=O)NC(=CC1=O)C2=O,,"human, plasma","intravenous infusion, 450 mg/m^2, day 1, 3 h infusion",,15.2 µM
COc1cc(OC)c(/C=C/S(=O)(=O)Cc2ccc(OC)c(NCC(=O)O)c2)c(OC)c1,,"human, patients with urinary symptoms, urine","oral, 560 mg",,2.49 µg/mL
COc1cc(C(=O)O)ccc1NC(=O)[C@@H]1N[C@@H](CC(C)(C)C)[C@](C#N)(c2ccc(Cl)cc2F)[C@H]1c1cccc(Cl)c1F,,"human, plasma","oral, 200 mg, steady state, added: venetoclax 600 mg",,4.13 µg/mL
Cc1[nH]c(/C=C2\C(=O)Nc3ccccc32)c(C)c1CCC(=O)O,,human patients,"oral, 400 mg/m^2 twice daily, after meal, dose 55",,8.58 ± 4.55 µg/mL
C=CC(=O)N1CCC([C@@H]2CCNc3c(C(N)=O)c(-c4ccc(Oc5ccccc5)cc4)nn32)CC1,,human,"oral, 480 mg single dose, mean",,0.353 µg/mL
CS(=O)(=O)n1cc2c(n1)CN([C@H]1CO[C@H](c3cc(F)ccc3F)[C@@H](N)C1)C2,,"healthy male human, plasma","oral, 50 mg once weekly, day 15, fasted, geometric mean",,1.08 µM
C=CC(=O)N1CCC(CNc2ncnc(N)c2-c2ccc(Oc3ccccc3)cc2)CC1,,"human, plasma","75 mg once daily, day 14, multiple dose, geometric mean",,0.252 µg/mL
CN1CC[C@H](c2c(O)cc(O)c3c(=O)cc(-c4ccccc4Cl)oc23)[C@H](O)C1,,"human advanced solid tumours, plasma","intravenous, 80 flavopiridol, added: oxaliplatin 85 + leucovorin/5-FU",,1.72 ± 0.54 µM
CCCNS(=O)(=O)Nc1ncnc(OCCOc2ncc(Br)cn2)c1-c1ccc(Br)cc1,,human,"oral, 10 mg, free combination, fasted, geometric mean, added: US-sourced tadalafil 40 mg",,0.168 µg/mL
CC(C)(C(=O)NCC(F)(F)C(F)(F)F)C(=O)N[C@@H]1C(=O)Nc2ccccc2-c2ccccc21,,"human, plasma","oral, 10 mg, day 1",,0.177 µg/mL
CC(C)n1nc(-c2ccc3oc(N)nc3c2)c2c(N)ncnc21,,"human, plasma","oral, 30 mg once weekly, cycle 1 day 1",,0.293 µg/mL
CC(C)NC[C@@H](C(=O)N1CCN(c2ncnc3c2[C@H](C)C[C@H]3O)CC1)c1ccc(Cl)cc1,,"human, normal hepatic function, plasma","oral, 100 mg single dose, reference group versus Moderate",baseline: NCI classification,0.049 µg/mL
CN(C)Cc1c(C(=O)NCCOc2ccc(C(=O)NO)cc2)oc2ccccc12,,"human, plasma","oral, 40 mg, single dose on day -3",,0.0949 ± 0.0114 µg/mL
CC(C)(Sc1ccncc1-c1ccc(C#N)c2ccccc12)C(=O)O,,"human, plasma","oral, 2.5 mg, added: febuxostat 80 mg",,0.00337 µg/mL
O=S(=O)(c1cccc2cnccc12)N1CCCNCC1,,"healthy human, plasma","oral, 30 mg",,0.0014 µg/mL
O=C(c1cccnc1-c1ccncc1)N1CCC(O)(Cc2ccccc2)CC1,,"healthy human, plasma","oral, 400 mg once daily, day 14, arithmetic mean",,2.93 µg/mL
C=C(C)[C@@H]1CC[C@]2(NCCN3CCS(=O)(=O)CC3)CC[C@]3(C)[C@H](CC[C@@H]4[C@@]5(C)CC=C(C6=CC[C@@](CF)(C(=O)O)CC6)C(C)(C)[C@@H]5CC[C@]43C)[C@@H]12,,healthy human volunteers,"oral, 200 mg, capsule, moderate-fat meal, arithmetic mean",,1.26 µg/mL
COc1ccc2nc([S@@+]([O-])Cc3ncc(C)c(OC)c3C)[nH]c2c1,,"human, CYP2C19 poor metabolizers, plasma","oral, 40 mg/day, day 1",,9.31 ± 4.86 µg/mL
O=C(CCCCCCC(=O)Nc1ccccc1)NO,,"human patients, serum","oral, 600 mg, cycle -1 day 2, compound alone",,1.62 µM
CC(=O)O[C@H]1C(=O)[C@@]2(C)[C@H]([C@H](OC(=O)c3ccccc3)[C@]3(O)C[C@H](OC(=O)[C@H](O)[C@@H](NC(=O)c4ccccc4)c4ccccc4)C(C)=C1C3(C)C)[C@]1(OC(C)=O)CO[C@@H]1C[C@@H]2O,,"human patients on nelfinavir alone, plasma","iv, 100 mg/m^2 over 3 h, cycle 1",,1.76 ± 0.92 µM
N[C@]1(C(=O)O)[C@H]2[C@@H](C[C@@H]1F)[C@@H]2C(=O)O,,"human, fed, plasma","oral, 5 mg multiple, day 14",,0.0199 µg/mL
